Measured values from different studies.
HLA class I histocompatibility antigen, A alpha chain allele A*68:02: HLA class I histocompatibility antigen, A alpha chain, allele A*68:02 (Homo sapiens, UniProt P04439)
HLA class I histocompatibility antigen, A alpha chain allele A*02:01: HLA class I histocompatibility antigen, A alpha chain, allele A*02:01 (Homo sapiens, UniProt P04439)

`CC(C)C[C@H](NC(=O)[C@@H](NC(=O)[C@H](CC(C)C)NC(=O)[C@@H](NC(=O)[C@@H](N)CCCNC(=N)N)[C@@H](C)O)C(C)C)C(=O)N[C@@H](CC(=O)O)C(=O)N[C@@H](C)C(=O)N[C@@H](Cc1ccc(O)cc1)C(=O)N[C@@H](CCCCN)C(=O)O` gave an IC50 of less than 0.2 µM (HLA class I histocompatibility antigen, A alpha chain, allele A*30:01 (Homo sapiens, UniProt P04439); peptide binding, competitive inhibition).
`CC(C)C[C@H](NC(=O)[C@H](CC(N)=O)NC(=O)[C@H](Cc1c[nH]c2ccccc12)NC(=O)[C@H](CCC(=O)O)NC(=O)[C@H](CCC(=O)O)NC(=O)[C@H](CC(C)C)NC(=O)[C@@H](NC(=O)[C@@H](NC(=O)[C@@H](N)CC(=O)O)[C@@H](C)O)C(C)C)C(=O)O` has a Kd of greater than 0.5 µM (HLA class I histocompatibility antigen, A alpha chain allele A*68:02; peptide binding, AlphaScreen).
`CC(C)C[C@H](NC(=O)[C@@H](N)CCCCN)C(=O)NCC(=O)NCC(=O)NCC(=O)N[C@@H](CCC(N)=O)C(=O)N[C@@H](Cc1ccc(O)cc1)C(=O)NCC(=O)N[C@@H](CCC(=O)O)C(=O)O` gave an IC50 of 2.28 µM (HLA class I histocompatibility antigen, A alpha chain (Homo sapiens, UniProt P04439); peptide binding, competitive radioligand binding; room temperature, HLA-A*0301 allele, with: radiolabelled probe peptide).
`CC(C)C[C@H](NC(=O)[C@H](CCCNC(=N)N)NC(=O)[C@H](CC(C)C)NC(=O)[C@H](CC(C)C)NC(=O)[C@@H](NC(=O)[C@H](C)NC(=O)[C@@H](N)CCC(=O)O)C(C)C)C(=O)N[C@@H](CC(=O)O)C(=O)NCC(=O)N[C@H](C(=O)N[C@H](C(=O)N[C@@H](CC(C)C)C(=O)N[C@@H](CCC(=O)O)C(=O)N[C@H](C(=O)N[C@@H](CCC(=O)O)C(=O)O)C(C)C)[C@@H](C)O)[C@@H](C)O` gave an IC50 of greater than 50 µM (HLA class I histocompatibility antigen, A alpha chain allele A*02:01; binding, competition binding; 48 h, pH 7, 20 °C, with: fluorescent HBV core peptide).
`CC[C@H](C)[C@H](NC(=O)[C@H](CC(=O)O)NC(=O)[C@@H](NC(=O)[C@H](CC(=O)O)NC(=O)[C@H](C)NC(=O)[C@H](CCSC)NC(=O)[C@@H](N)CCCCN)C(C)C)C(=O)N[C@@H](CO)C(=O)N[C@H](C(=O)N[C@H](C(=O)O)C(C)C)[C@@H](C)O` has an IC50 of less than 5.01 µM (HLA class I histocompatibility antigen, A alpha chain allele A*02:01).
For `CC(C)C[C@H](NC(=O)[C@H](CCCNC(=N)N)NC(=O)[C@H](CC(C)C)NC(=O)[C@H](CC(C)C)NC(=O)[C@@H](NC(=O)[C@H](C)NC(=O)[C@H](CCC(=O)O)NC(=O)[C@H](CO)NC(=O)[C@@H]1CCCN1C(=O)[C@H](CCC(N)=O)NC(=O)[C@H](CO)NC(=O)[C@H](C)NC(=O)[C@H](CC(=O)O)NC(=O)CNC(=O)[C@@H](N)C(C)C)C(C)C)C(=O)N[C@@H](CC(=O)O)C(=O)NCC(=O)N[C@H](C(=O)N[C@H](C(=O)N[C@@H](CC(C)C)C(=O)N[C@@H](CCC(=O)O)C(=O)N[C@H](C(=O)N[C@@H](CCC(=O)O)C(=O)N[C@@H](C)C(=O)N[C@H](C(=O)N[C@@H](CO)C(=O)N[C@H](C(=O)N[C@@H](CC(C)C)C(=O)N[C@H](C(=O)N[C@H](C(=O)O)C(C)C)[C@@H](C)O)C(C)C)C(C)C)C(C)C)[C@@H](C)O)[C@@H](C)O`, the IC50 was greater than 50 µM (HLA class I histocompatibility antigen, A alpha chain allele A*02:01; binding, competition binding; 48 h, pH 7, 20 °C, with: fluorescent HBV core peptide).
The IC50 of `CC[C@H](C)[C@H](NC(=O)CNC(=O)[C@H](CCCCN)NC(=O)[C@H](CCC(=O)O)NC(=O)[C@H](CC(C)C)NC(=O)[C@@H](N)C(C)C)C(=O)N1CCC[C@H]1C(=O)N[C@H](C(=O)N[C@@H](CC(C)C)C(=O)O)[C@@H](C)O` is reported as less than 0.2 µM (HLA class I histocompatibility antigen, A alpha chain allele A*02:01; binding, competitive radioligand binding; 48 h, 37 °C, with: radiolabelled FLPSDYFPSV 1 nM).
With `CC[C@H](C)[C@H](N)C(=O)N[C@@H](C)C(=O)N[C@@H](C)C(=O)N[C@@H](CCCNC(=N)N)C(=O)N[C@@H](C)C(=O)N[C@H](C(=O)N[C@@H](CCC(=O)O)C(=O)N[C@@H](CC(C)C)C(=O)N[C@@H](CC(C)C)C(=O)O)C(C)C` the Kd was greater than 0.5 µM (HLA class I histocompatibility antigen, A alpha chain allele A*68:02; peptide binding, AlphaScreen).
